# Assay results from different studies.
# ± gives the spread as reported.
SMILES,cell line,test,setting,IC50
COC(=O)[C@@H]1[C@@H](OC)[C@H](OC(=O)c2cc(OC)c(OC)c(OC)c2)C[C@@H]2CN3CC[C@]4(O[C@@H]3C(=O)[C@@H]21)C(=O)Nc1cc(OC)ccc14,CAPAN-1,"cell growth or viability, crystal violet",72 h,23 µM
CN(C)CCO/N=C1/C=C2CCC3C(CC[C@]4(C)/C(=C/c5ccccn5)CCC34)[C@@]2(C)CC1 (stereo partly shown),G-361,"cell growth or viability, resazurin",72 h,10.6 µM
O=C(CSc1cccc[n+]1[O-])c1ccccc1Br,HCC4017,"cell growth or viability, MTS",96 h,33.5 µM
CC(=O)O[C@@H]1[C@H](OC(C)=O)[C@@H](C)O[C@H]1n1cc(F)c(NC(=O)/C=C/c2ccc(O)c(O)c2)nc1=O,AsPC-1,"cell viability, MTT",72 h,133 ± 5.67 µM
N=C(N/N=C/c1cc2ccccc2[nH]1)N/N=C/c1cc2ccccc2[nH]1,IMR-90,"cell growth or viability, crystal violet",72 h,5.9 µM
O=C(Cc1ccc2ccccc2c1)N[C@H](Cc1ccccc1)C(=O)N[C@H](Cc1ccc(OP(=O)(O)O)cc1)C(=O)N[C@H](Cc1ccccc1)C(=O)N[C@H](Cc1ccc(OP(=O)(O)O)cc1)C(=O)O,HS5,"cell growth or viability, MTT",,> 483 µg/mL
O=C(N/N=C/c1ccccn1)c1cc(-c2ccc(Cl)cc2)nc2ccccc12,HCC4017,"cell growth or viability, MTS",96 h,> 50 µM
CO[C@@H]1[C@@H](O[C@@H]2O[C@H](C)[C@@H](O[C@H]3C[C@@](C)(O)[C@@H](OC(=O)Cc4ccc(C(C)(C)C)cc4)[C@H](C)O3)[C@H](N(C)C)[C@H]2O)[C@@H](CC=O)C[C@@H](C)[C@@H](O[C@H]2CC[C@H](N(C)C)[C@@H](C)O2)/C=C/C=C/C[C@@H](C)OC(=O)C[C@H]1O,HGC-27,"cell growth or viability, CCK-8",72 h,0.49 µM
N=C(N/N=C/c1ncc[nH]1)N/N=C/c1ncc[nH]1,IMR-90,"cell growth or viability, crystal violet",72 h,180 µM
CCCC(=O)Oc1c(C)c(OC)c2c(/C=C/c3ccccc3)c(CC)c(=O)oc2c1C,KKU-M213,"cell growth or viability, SRB",72 h,29.6 µM
C[N+]1(C)CC[NH2+][Pt-2]1([OH])([Cl])([Cl])[O]C(=O)CCC(=O)OCCO,CH1,"cell growth or viability, MTT",96 h,3.4 µM
CCCCCCCCC=CCCCCCCCC(=O)OCC1OC(n2ccc(N)nc2=O)C(F)(F)C1O (stereo not shown),LOX,cell growth,together with: NBMPR 100 µM,0.027 ± 0.0006 µM
CC(C)N(C[C@H]1O[C@@H](n2cnc3c(N)ncnc32)[C@H](O)[C@@H]1O)C1CC2CN(Cc3cc(F)cc(Br)c3)CC2C1 (stereo partly shown),H460 R231Q,"cell proliferation, CCK-8",72 h,> 100 µM
CN(C)CCCO/N=C1/C=C2CCC3C(CC[C@]4(C)/C(=C/c5ccccn5)CCC34)[C@@]2(C)CC1 (stereo partly shown),G-361,"cell growth or viability, resazurin",72 h,2.8 µM
COc1cc2c(cc1C(C)=O)C(=O)CC1C(C)(C)c3nc(C)ncc3C[C@]21C (mixture of isomers),TM3,"cell growth or viability, SRB",24 h,> 100 µM
Cc1ccc(C(C)C)cc1.O=C(N=P(c1ccccc1)(c1ccccc1)c1ccccc1)c1ccccn1.[Cl-].[Cl][Ru+],IMR-90,"cell growth or viability, resazurin",,53.7 µM
Cn1cc(-c2cc(N3CCCN(CC(F)F)S3(=O)=O)ccc2Oc2ccc(F)cc2F)c2cc[nH]c2c1=O,Light II cells,"GLI reporter gene, inhibitor",Hedgehog pathway,0.0289 ± 0.0119 µM
CC(C)=CCC1=C([O-])C(=O)c2ccccc2C1=O.CC(C)=CCC1=C([O-])C(=O)c2ccccc2C1=O.[Cu+2].c1ccc(-c2ccccn2)nc1,A2780,"cell viability, MTT",24 h,9.4 ± 3 µM
CC(=O)Oc1ccccc1C(=O)[O][Pt]([NH2])([NH2])([Cl])([Cl])[O]C(=O)CCCc1ccccc1,PSN1 3D spheroids,,,7.75 ± 0.01 µM
CC1(C)[C@@H](O)CC[C@]2(C)[C@H]3C(=O)C=C4[C@@H]5C[C@@](C)(C(=O)O)CC[C@]5(C)CC[C@@]4(C)[C@]3(C)CC[C@@H]12,IOSE80,"cell growth or viability, MTT",48 h,> 100 µM
N[C@@H]1CCCC[C@H]1N.O=C1[O][Pt]2([O]C1=O)[O]C(=O)C(=O)[O]2,CH1,"cell viability, MTT",96 h,4.1 ± 0.9 µM
C=CCc1ccc(O)c(-c2cc(CC=C)ccc2OCCCCCCCCCC[P+](c2ccccc2)(c2ccccc2)c2ccccc2)c1,G-361,"cell growth or viability, imaging",,0.22 µM
O=C1NC(c2ccc(N3CCOCC3)cc2)(c2ccsc2)CC(O)=C1Sc1ccccc1Cl (stereo not shown),SNU-398,"lactate production, refers to: lactate in supernatant",6 h,> 2 µM
CCC(C(=O)O)C1CCC(C)C(C(C)C(O)C(C)C(=O)C(CC)C2OC3(C=CC(NCc4cn(Cc5ccccc5)nn4)C4(CCC(C)(C5CCC(O)(CC)C(C)O5)O4)O3)C(C)CC2C)O1 (stereo not shown),HMLER CD24high/CD44low,"cell viability, CellTiter-Blue",72 h,1.13 ± 0.3 µM
CC1=C/C(=N\N=C(/S)Nc2cccnc2)CC(C)(C)C1,HCC4017,"cell growth or viability, MTS",96 h,> 50 µM
C[O][Pt-2]1([Cl])([Cl])([O]C(=O)CCC(=O)OCCOC(=O)CCC(=O)[O][Pt-2]2([Cl])([Cl])([O]C)[NH2+]CC[N+]2(C)C)[NH2+]CC[N+]1(C)C,CH1,"cell growth or viability, MTT",96 h,2.3 µM
N=C(N)NCCC[C@H](N)C(=O)N1CCC[C@H]1C(=O)N[C@H](CC(=O)N[C@@H](Cc1ccc(O)cc1)C(=O)O)c1cccc2ccccc12,BT-474 (HER2-overexpressing),,,> 50 µM
Cc1ccc(C(C)C)cc1.Oc1ccccc1C=NNC1=Nc2ccccc2-c2[nH]c3ccc(Br)cc3c2C1.[Cl-].[Cl][Ru+],LNCaP,"cell growth or viability, MTT",96 h,2.3 µM
C#CCN(CC(=O)O[C@H]1[C@H](C)O[C@@H](O[C@H]2[C@H](N(C)C)[C@@H](O)[C@H](O[C@H]3[C@@H](CC=O)C[C@@H](C)[C@@H](O[C@H]4CC[C@H](N(C)C)[C@@H](C)O4)/C=C/C=C/C[C@@H](C)OC(=O)C[C@@H](O)[C@@H]3OC)O[C@@H]2C)C[C@@]1(C)O)C(=O)c1ccc(C(F)(F)F)cc1,HGC-27,"cell viability, CCK-8","72 h, without N-acetylcysteine",0.219 µM
CCN(CC)CCCNC(=O)CSc1c2c(nc3cc(Cl)ccc13)CCCC2,HCC4017,"cell growth or viability, MTS",96 h,> 50 µM
CO[C@@H]1[C@@H](O[C@@H]2O[C@H](C)[C@@H](O[C@H]3C[C@@](C)(O)[C@@H](OC(=O)CN(C)C)[C@H](C)O3)[C@H](N(C)C)[C@H]2O)[C@@H](CC=O)C[C@@H](C)[C@@H](O[C@H]2CC[C@H](N(C)C)[C@@H](C)O2)/C=C/C=C/C[C@@H](C)OC(=O)C[C@H]1O,HGC-27,"cell growth or viability, CCK-8",72 h,> 50 µM
COc1cc(NC(=O)c2cccc(F)c2)ccc1C(=O)Nc1ccc(Cl)c(-c2nc3ccccc3[nH]2)c1,NIH3T3-Gli-Luc,"Hedgehog signalling, Gli-luciferase reporter",together with: Shh-conditioned medium,0.79 ± 0.14 µM
COc1cccc(/C=N/Nc2nc(Nc3ccccc3)nc(-n3nc(C)cc3C)n2)c1O,LDR,"cell viability, MTS",4 days,1 µM
N[C@@H](CCC(=O)N[C@@H](CS[Se]Cc1ccc(-c2cc(C(F)(F)F)nn2-c2ccc(S(N)(=O)=O)cc2)cc1)C(=O)NCC(=O)O)C(=O)O,1205 Lu melanoma cells,"cell viability, MTS",24 h,24.6 ± 2.2 µM

# Excerpt of the above:
SMILES,cell line,test,setting,IC50
CC(C)=CCC1=C([O-])C(=O)c2ccccc2C1=O.CC(C)=CCC1=C([O-])C(=O)c2ccccc2C1=O.[Cu+2].c1ccc(-c2ccccn2)nc1,A2780,"cell viability, MTT",24 h,9.4 ± 3 µM
Cn1cc(-c2cc(N3CCCN(CC(F)F)S3(=O)=O)ccc2Oc2ccc(F)cc2F)c2cc[nH]c2c1=O,Light II cells,"GLI reporter gene, inhibitor",Hedgehog pathway,0.0289 ± 0.0119 µM
O=C(N/N=C/c1ccccn1)c1cc(-c2ccc(Cl)cc2)nc2ccccc12,HCC4017,"cell growth or viability, MTS",96 h,> 50 µM
